# Assay results collected from several papers.
# Each line is one published result; not all experiments were run side by side. Values joined by “and” are separate records of one study, mostly repeats; a detail may differ.
Structure (SMILES),tested on,assay,system,setting,how to read,endpoint,result
COc1ccn2cc(-c3ccccn3)nc2c1,Leishmania infantum,,"macrophages, MHOM/MA(BE)/67/ITMAP263, amastigote",,,IC50,32.2 µM and 23.9 µM
COc1cnc2cccc(N3CCc4c(cc(Cn5ccnc5C)cc4-c4cn(C)nc4C(F)(F)F)C3=O)c2c1,COV644,cell growth,,120 h,,EC50,14.4 µM
COc1cc2c(cc1OC)C1CC(=O)C(CC(C)C)CN1CC2 (stereo not drawn),THP-1,pyroptotic LDH release,,"2 µM, 40 min, added: LPS then nigericin",,inhibition,7.07%
OC(CCN1CCCCC1)(c1ccccc1)C1CC2C=CC1C2 (stereo not drawn),,resting-state EEG,healthy elderly humans,"oral, 4 mg, eyes closed, LS mean",,EEG Alpha2-power Fz-Cz,2.7 µV²
Fc1cc(-c2c(-c3ccccn3)nc3n2CCC3)ccn1,Leishmania infantum,,"macrophages, MHOM/MA(BE)/67/ITMAP263, amastigote",,,IC50,32.5 µM and 25.7 µM
CCn1cc(-c2cc(Cn3ccnc3)cc3c2CCN([C@H](c2cc(OC)ccn2)C2CC2)C3=O)c(C(F)(F)F)n1,SUM-159-PT,"cell growth, inhibitor",,120 h,,EC50,10.3 µM
O=C(/C=C/C=C/C=C/C1CCCCC1)NC1=C[C@@](O)(/C=C/C=C/C=C/C(=O)NC2=C(O)CCC2=O)[C@@H]2O[C@@H]2C1=O,Calu-1,"cell growth, CellTiter-Glo",,78 h,,GI50,13.6 µM
Cn1cnc(-c2nc3ccccn3c2Nc2ccc(F)cc2)c1,Leishmania infantum,,"macrophages, MHOM/MA(BE)/67/ITMAP263, amastigote",,,IC50,6.82 µM and 9.51 µM
Cn1cc(-c2ccc(-c3cncc(Cl)c3N3CCC4(CCNC4=O)CC3)cc2)cn1,COLO 205,"gene expression, microarray, item: RSU1 mRNA",,"concentration not given, 2 h",reference: untreated cells,log2 fold change,2.71
Oc1cccc2ccccc12,THP-1,pyroptotic LDH release,,"2 µM, 40 min, added: LPS then nigericin",,inhibition,3.12%
Fc1ccc(Nc2c(Cn3cccn3)nc3ccccn23)cc1,Leishmania infantum,,"intramacrophage amastigotes, MHOM/MA(BE)/67/ITMAP263",,,IC50,> 64 µM
CC(=O)OC/C=C(\C)CCC=C(C)C,THP-1,pyroptotic LDH release,,"2 µM, 40 min, added: LPS then nigericin",,inhibition,12.9%
Clc1ccc(-c2c(-c3ccccn3)nc3n2CCC3)cc1Cl,Leishmania infantum,,"macrophages, MHOM/MA(BE)/67/ITMAP263, amastigote",,,IC50,0.5 µM and 0.73 µM
CCOc1ccc2nc3cc(N)ccc3c(N)c2c1,THP-1,pyroptotic LDH release,,"2 µM, 40 min, added: LPS then nigericin",,inhibition,5.44%
COc1ccc2nc(-c3cc(N(C)C)ccn3)c(Nc3ccc(F)cc3)n2c1,Leishmania infantum,,"macrophages, MHOM/MA(BE)/67/ITMAP263, amastigote",,,IC50,1.49 µM and 2.01 µM
C[C@]1(COc2ccc(N3CCC(Oc4ccc(OC(F)(F)F)cc4)CC3)cc2)Cn2cc([N+](=O)[O-])nc2O1,THP-1,pyroptotic LDH release,,"2 µM, 40 min, added: LPS then nigericin",,inhibition,16.4%
CC(C)n1ncc2c(C(=O)NCC3(C)CNC3)cc(C3CC3)nc21,Enterovirus D68,cytopathic effect,"RD, US/MO/14-18949",150 nM,,cell protection,-0.137% and 0.137% and -0.273%
C=CS(=O)(=O)c1ccc(Nc2nc(OCC3CCCCC3)c3nc[nH]c3n2)cc1,THP-1,pyroptotic LDH release,,"2 µM, 40 min, added: LPS then nigericin",,inhibition,95.5%
COc1ccc2nc(-c3cc(N(C)C)ccn3)c(N(C)c3ccc(F)cc3)n2c1,Leishmania infantum,,"macrophages, MHOM/MA(BE)/67/ITMAP263, amastigote",,,IC50,1.39 µM and 1.78 µM
CO/N=C(\C(=O)N[C@@H]1C(=O)N2C(C(=O)O)=CCS[C@H]12)c1csc(N)n1,THP-1,pyroptotic LDH release,,"2 µM, 40 min, added: LPS then nigericin",,inhibition,9.33%
CCn1cc(-c2cc(Cn3ccoc3=N)cc3c2CCN([C@@H](C)c2cc(OC)ccn2)C3=O)c(C(F)(F)F)n1,SW48,"cell growth, inhibitor",,120 h,,EC50,0.0165 µM
